Published values of several laboratories.
Every numbered part comes from another study and shows a few of its results, in no order. Changes are numbered by the printed parent chain.

Sample 1 — technique: protein-binding microarray; form: double-stranded DNA, one strand shown; sample: in vitro; concentration: 940 nM top; notes: 60-bp whole probe; added: salmon DNA 0.4 mg/ml; reference: random background probes; reading: higher = stronger binding; constant ends, left off below: GCCTAGCAC … GTCTTGATTCGCTTGACGCTGCTG
Target: Interferon regulatory factor 5, full length, phosphomimetic (IRF5, Homo sapiens, UniProt Q13568-2, residues 1-514, S451D/S453D/S456D/S462D)
`GACGTACTGCTTTTCCTGACGTGCTAG`: “fitted relative affinity” 0.597 z-score.
Under “fitted relative affinity”, `TTAGGACTGCTTATCCCTTAGTGCTAG` is recorded as -0.441 z-score.
`TAAGGACTGCTTCTCCTTTAGTGCTAG`: “fitted relative affinity” 0.0133 z-score.
`TTGGGTATCGACTATCGGTTAGTGCTA`: “fitted relative affinity” 4.56 z-score.
`GACGATATCGGGACTGGAGATGTGCTA` — result for “fitted relative affinity”: -0.322 z-score.
For `TCATGTACGTCGTTTCCCACTGTGCTA`, “fitted relative affinity” read 0.405 z-score.
Under “fitted relative affinity”, `GACGCACTGCTTCTCCTGACGTGCTAG` is recorded as 0.0702 z-score.
Under “fitted relative affinity”, `TTGGAACTGAGTCTCGATTAGTGCTAG` is recorded as 2.56 z-score.
For `TTCTAAATATCTTTGTTGAAGTGCTAG`, “fitted relative affinity” read 0.277 z-score.
Under “fitted relative affinity”, `GACGAGTCCAGTTTCGAGACGTGCTAG` is recorded as 4.68 z-score.
For `GACGGTCTCGGTTTTGGGACGTGCTAG`, “fitted relative affinity” read 3.93 z-score.

Sample 2 — target: CCNF, cyclin fold, Cln2 fusion (human); technique: yeast growth competition, sequencing; sample: yeast; notes: strong parent motif; reference: not given; reading: higher = stronger binding
Starting sequence: CDC6 docking peptide (human); TLKGRRLVFDNQL; partner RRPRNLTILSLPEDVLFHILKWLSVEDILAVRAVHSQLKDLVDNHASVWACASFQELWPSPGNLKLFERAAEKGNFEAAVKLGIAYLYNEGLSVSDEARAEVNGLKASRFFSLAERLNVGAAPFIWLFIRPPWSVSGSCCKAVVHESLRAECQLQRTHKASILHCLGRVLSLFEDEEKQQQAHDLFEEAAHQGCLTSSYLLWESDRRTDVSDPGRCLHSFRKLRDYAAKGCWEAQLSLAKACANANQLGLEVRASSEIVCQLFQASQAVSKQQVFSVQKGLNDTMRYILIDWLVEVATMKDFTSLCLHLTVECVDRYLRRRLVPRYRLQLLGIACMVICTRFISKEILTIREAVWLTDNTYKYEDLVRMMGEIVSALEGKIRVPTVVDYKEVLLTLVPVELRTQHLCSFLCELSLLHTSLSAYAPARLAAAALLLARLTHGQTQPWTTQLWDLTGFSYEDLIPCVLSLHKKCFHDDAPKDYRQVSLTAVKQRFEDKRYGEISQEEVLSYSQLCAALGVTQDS
Under “normalised enrichment score”, `K3A` is recorded as 7.05.
`L13N`: “normalised enrichment score” 8.42.
For `V8K`, “normalised enrichment score” read 7.42.
Under “normalised enrichment score”, `R6G` is recorded as 2.39.
`K3C`: “normalised enrichment score” 8.16.
`N11T` — result for “normalised enrichment score”: 8.75.
`L7A`: “normalised enrichment score” 0.901.
For `D10V`, “normalised enrichment score” read 7.24.
For `Q12D`, “normalised enrichment score” read 8.4.

Sample 3 — technique: RNA Bind-n-Seq; form: RNA; sample: in vitro; concentration: 365 nM; reference: no-protein control; reading: higher = stronger binding
Target: RNA binding protein fox-1 homolog 2, RRM domain, GST-SBP tag (RBFOX2, Homo sapiens, UniProt O43251-10, residues 100-194)
Notes: natural RNA segment, single round, ends assumed
Residues (chain): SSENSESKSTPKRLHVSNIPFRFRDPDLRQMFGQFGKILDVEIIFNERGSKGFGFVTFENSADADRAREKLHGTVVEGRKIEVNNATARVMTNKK
`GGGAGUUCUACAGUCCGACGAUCGUUCCCUACAGUUUGCUGCUGAGCUGGAAGCUGUGGGGGAAGGAGUUGACAGGUGGGCCCAGUGAACUUUUCCAGUAAAUGAAGCAAGCACUGAAUAAAAACCUCCUGAAUGGAAUUCUCGGGUGCCAA`: “RBNS enrichment (R)” 0.27.
`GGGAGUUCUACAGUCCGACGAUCAGUUCUUUGCCAGGCUGCCUGCCGGAAAAGGUGUAGACAGAUGCUACUAAGACACCAAAUAGUGUCCAUGUAAGAUGGCAACUGCAUUAAAAAAAAAUCAGGAAAAACAAUGGAAUUCUCGGGUGCCAA` — result for “RBNS enrichment (R)”: 0.375.
Under “RBNS enrichment (R)”, `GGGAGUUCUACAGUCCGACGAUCAACUUGAAGAUUCCAGAGAUUCCCCACGACCUAAUGAUCUAAGAAUGCAGAUUGGAUUCUUUGAUGUUCAAAUUUCUCAUUUACUUAUGAAAAUCCCUAAUUAUAUAGUUUGGAAUUCUCGGGUGCCAA` is recorded as 1.35.
For `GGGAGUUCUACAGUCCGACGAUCCAGGUUCUACCCGGGCGCCUCUGUGUGUUCUACAGCACAGAGGACUUCGGGGAGAUUGAUUGGAUCAGAGCCAUUGGCUGGCUCUGGCUCUGCUUUUCUGCCUUCAGUUAUGGAAUUCUCGGGUGCCAA`, “RBNS enrichment (R)” read 0.234.
Under “RBNS enrichment (R)”, `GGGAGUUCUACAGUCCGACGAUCACACCGAAACCUCCCUUCUUAAAGCGUGUGAGGUUGGGUGAUAGCCGUUCCUUCCCCGACACCCUCAAUUUCCCCAUCUCUGAUCCUCUAAUCUGCCUCUGAACCCAUUCUGGAAUUCUCGGGUGCCAA` is recorded as 0.578.
For `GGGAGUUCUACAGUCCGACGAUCAAUGUAUUUGCUUGGCUUGGAACUUAAGAUUGAACCAAUUUUACAAUAAAUCAAAUUGGAAGAAAUUGGUAAAAGGCAUUUUAGUAAUAUUGGAACUUUUUGAAGUGUGUUGGAAUUCUCGGGUGCCAA`, “RBNS enrichment (R)” read 0.993.
`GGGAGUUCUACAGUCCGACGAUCGAGCUAGGGGGAGGAGUCAUUGUGGCACAAGUAUUUGUACAUACUCUGCUUCUCUCUGUCAGCGUCCUGCUGCUCUAGAAGACUGUCCGUGGAUGAGUUUAGUGUACAGAUGGAAUUCUCGGGUGCCAA`: “RBNS enrichment (R)” 0.306.
For `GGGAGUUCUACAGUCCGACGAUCUCCCUGGGGCCAACGGCAACAGCAUGGGCCUCACCUCCUCUGUGAUUUCUUUCUUUGCACCAAAGACAUCAGUCUCCAACAUGUUUCUGUUUUGUUGUUUGAUUCAGCAAUGGAAUUCUCGGGUGCCAA`, “RBNS enrichment (R)” read 5.42.
`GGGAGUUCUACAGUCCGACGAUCGGAGGAGUUUCCUUGCUGAGAUUUCAAAUAGUCCUCCCCACCUCAACUGUCACCACUGCUAAGGGACUCUAUCCAUUGAGCACAUUUUCCUAAGGCCCUGCUGUCUGCCGUGGAAUUCUCGGGUGCCAA`: “RBNS enrichment (R)” 0.416.
`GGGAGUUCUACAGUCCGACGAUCACUCUGGUCCUUACAUCACAGAGAAAAGCCACCUUGCCCGUUUUUCCUCCAUUCUGUGAACUUCCCUGGUGAGAGAAGAAGGAGGACUGGGCAUGAACUGAGGAUUGUAUUGGAAUUCUCGGGUGCCAA`: “RBNS enrichment (R)” 0.493.
Under “RBNS enrichment (R)”, `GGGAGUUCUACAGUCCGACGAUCCGUAACCCUUUCAAUUGAACUGCCUGGAUUUUAUAUAAAGUUACUAAACGAUACCUUGUUCUUGGAACUGCAUGCUGCCAAGUGCCAUUCGUACUGAGCAUCCUCAUUUCUGGAAUUCUCGGGUGCCAA` is recorded as 25.8.
For `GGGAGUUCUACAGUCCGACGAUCGAGGAUGUGAUAUGUGGGGGAGUGAGCACUGGGUUGGGAGCCGGGUCCUGGUUUCCAAUUUGGGUUCUGCUGUGUGACUCUGGGCAAGUCACUCUCCCUCUCUGGGCAUGUGGAAUUCUCGGGUGCCAA`, “RBNS enrichment (R)” read 0.783.

Further values, each from its own experiment
With `PhoQ, residues 284 288 289 292 302 303 SIHLQL` the fold induction was 1.19 (PhoP, residues 12 14 15 18 19 AQCLL (Escherichia coli, UniProt P23836); Sort-seq, item: YFP reporter; E. coli; PhoQ-PhoP variant library, added: 10 µM Mg2+; reference: high Mg2+ state, higher = stronger signaling).
